Published values of several laboratories.
Each numbered part is a random draw from the data of one study; scales do not carry over between parts. Changes are numbered by the printed parent chain.

Study 1
Target: CCNB1, cyclin fold, Cln2 fusion (human)
Technique: yeast growth competition, sequencing
Matrix: yeast
Setting: weak parent motif
Baseline: not given
Direction: higher = stronger binding
Parent: SLBP docking peptide (human); ARYKRKLLINDFG
Substitution	normalised enrichment score
Y3P	0.114
L8A	0.825
K4F	0.796
L7V	0.028
D11F	0.409
K6A	0.965
A1L	0.0179
N10A	0.0621
I9H	1.01
K6E	0.874
L7K	0.114
L7Q	0.489
F12H	0.222
I9S	1.51
L7N	1.11
K4R	0.271
D11K	0.22

Study 2
Target: Ras GTPase-activating protein-binding protein 1, full length (G3BP1, Homo sapiens, UniProt Q13283)
UniProt Q13283, sequence (whole entry, looked up): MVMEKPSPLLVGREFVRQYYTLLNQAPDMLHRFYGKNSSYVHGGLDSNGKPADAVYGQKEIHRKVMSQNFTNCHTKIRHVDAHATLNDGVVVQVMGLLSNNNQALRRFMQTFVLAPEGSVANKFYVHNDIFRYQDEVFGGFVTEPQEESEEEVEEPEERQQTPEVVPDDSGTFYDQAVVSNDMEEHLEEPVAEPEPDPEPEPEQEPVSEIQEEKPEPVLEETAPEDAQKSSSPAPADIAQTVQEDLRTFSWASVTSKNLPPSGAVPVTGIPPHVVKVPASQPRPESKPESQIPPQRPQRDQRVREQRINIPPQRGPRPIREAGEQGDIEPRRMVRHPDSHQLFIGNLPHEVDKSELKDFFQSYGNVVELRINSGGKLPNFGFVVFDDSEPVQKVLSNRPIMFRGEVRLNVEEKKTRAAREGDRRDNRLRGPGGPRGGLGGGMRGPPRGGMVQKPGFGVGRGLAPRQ
Technique: RNA Bind-n-Seq
Molecule type: RNA
Matrix: in vitro
Tested at: 200 nM
Setting: whole 134-nt RNA, ends assumed
With: 150 mM LiCl
Baseline: input library
Direction: higher = stronger binding
All molecules: 7-deaza-guanosine replaces G
Strand	log2 enrichment
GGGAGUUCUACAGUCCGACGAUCUGGGAGGUGGAUUUUGUUUAUUUUUUUAGCUCAUUUCCAGGGGUGGGAAUCUUUUUUUAAUAUGUGUCAUGAAUAAAGUUGUUUUUGAAAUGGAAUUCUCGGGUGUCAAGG	-0.353
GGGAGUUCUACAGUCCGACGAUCAAGUCCUGUGCUACACAUCGUAUGUACCGAAUCGGAAAAAGGAAAAAAAGGUUUGGAAAGUAUUAUGUUACGCCGUUCGGAUCUGCACUUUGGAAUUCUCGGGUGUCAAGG	-2.81
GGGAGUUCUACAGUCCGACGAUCACCAUGCAGGUGGGCAUCUUUGGGAAGUGGGGCAAGGGGGGGAUAGGGAGGGGGGUAACACUUUGGGAACAGGUGGUCCCAGGUGGUUUCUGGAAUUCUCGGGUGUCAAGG	0.436
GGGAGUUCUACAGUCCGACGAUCCUCAAGUCCUGUGCUACACAUCGUAUGUACCGAAUCGGGGCCGGCCGGGCCGGGAAAGUAUUAUGUUACGCCGUUCGGAUCUGCACUUCCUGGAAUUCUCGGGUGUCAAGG	0.665
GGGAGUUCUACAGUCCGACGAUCUAACUUUAGAGGACGAUCUGAUGGAUAUGGCAGUGGACGUGGAUUUGGGGAUGGCUAUAAUGGGUAUGGAGGAGGACCUGGAGGUGGCAAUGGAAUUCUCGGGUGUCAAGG	-0.0552
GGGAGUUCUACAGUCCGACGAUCUGGGAGGUCGAUUUUGUUUAUUUUUUUAGCUCAUUUCCAGGGGUGGGAAUUUUUUUUUAAUAUGUGUCAUGAAUAAAGUUGUUUUUGAAAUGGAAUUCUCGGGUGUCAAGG	0.535
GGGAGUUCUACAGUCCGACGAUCUGGGAGGUGGAUUUUGUUUAUUUUUUUAGCUCAUUUACAGGGGUGGGAAUUUUUUUUUAAUAUGUGUCAUGAAUAAAGUUGUUUUUGAAAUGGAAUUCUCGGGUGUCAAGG	0.65
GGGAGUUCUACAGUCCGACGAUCUAUCAGGAGGGCAGACUUCAAAAGCUACUAAAAAUGAACGGCCCUGAAGAUCUUCCCAAGUCCUAUGACUAUGACCUUAUCAUCAUUGGAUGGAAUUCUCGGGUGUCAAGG	-1.6
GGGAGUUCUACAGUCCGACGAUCCUGUGCUACACAUCGUAUGUACCGAAUCGGGUUUUUUUGGUUUUUUUGGGGUUUUUUUGGGAAAGUAUUAUGUUACGCCGUUCGGAUCUGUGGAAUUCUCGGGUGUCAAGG	1.02
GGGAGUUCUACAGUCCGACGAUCUCCUGUGCUACACAUCGUAUGUACCGAAUCGGGCCCCCGGGCCCCCGGGGCCCCCGGGGAAAGUAUUAUGUUACGCCGUUCGGAUCUGCAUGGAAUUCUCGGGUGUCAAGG	-1.48
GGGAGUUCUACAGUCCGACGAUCGCAGGAAGUAAAAACAAAUGGAAAUGCUUCGGAUAGUGGCAGGGGUGGGGGUUGCUAAGGAAAGGGUGGGAUGGGAGUGGGUAAAGAGUAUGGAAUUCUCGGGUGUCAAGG	0.286

Study 3
Target: RNA binding protein fox-1 homolog 2, RRM domain, GST-SBP tag (RBFOX2, Homo sapiens, UniProt O43251-10, residues 100-194)
Technique: RNA Bind-n-Seq
Molecule type: RNA
Matrix: in vitro
Tested at: 365 nM
Setting: natural RNA segment, single round, ends assumed
Baseline: no-protein control
Direction: higher = stronger binding
Residues (chain): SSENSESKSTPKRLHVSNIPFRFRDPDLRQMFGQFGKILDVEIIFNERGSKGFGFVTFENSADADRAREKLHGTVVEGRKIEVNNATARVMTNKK
Strand	RBNS enrichment (R)
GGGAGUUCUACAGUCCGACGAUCGAGGCAGGUGGCAAUCUCCUCGCCAGCAUUCCAGGCCCUCAGUUCAAUGACAUCUCUCAGAGCAUUUUUGUUUUCUCCUCUGAAGGUCCAUCCAGUUGCAUUGGGAAGGGUGGAAUUCUCGGGUGCCAA	6.21
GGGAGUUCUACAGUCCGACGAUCUUCCAGAGCUCUUUGAUCGCUUUUAAUAAACUGCAAGUUCAUUUUAAAUGAAGGGCCAGCAUAUAUACUUGCAAGAUAAUUUUCAGCUGCAAGGAUUCAGCACCAGUUAUUGGAAUUCUCGGGUGCCAA	0.92
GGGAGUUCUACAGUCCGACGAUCGGGCUGUCCAGAGCUGCAGCAGGGCUUUGCACGGAAGGGGUGGCCCUGUUAGAGUUGCUUCUCCUCUAGUUUGUAACUUACUGGACUUUUGUGGAAAAUAUCAGCGUCGCUGGAAUUCUCGGGUGCCAA	1.22
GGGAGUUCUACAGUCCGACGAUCUUCUUCUAAAGGGCAUUGGCCUCUCAGGUGAACUUGCAGAGACUUGGCCAAAUUUGCUUCCUCUUUCCCCUGGGGCAGUUGCCUCAUAUGGGGUCAUUACAAGACCCCUUUGGAAUUCUCGGGUGCCAA	0.329
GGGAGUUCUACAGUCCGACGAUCUCUCCUUUUCCUGCCUCCUCCCUAAAUAGCUGCCUUCUAGUGCUGUAGCAAGGGAGCCCUACUGCAUAGCCAGUAACUCGCGUCUGUACCAUGGAAAGGGCGGAACGAUUUGGAAUUCUCGGGUGCCAA	0.42
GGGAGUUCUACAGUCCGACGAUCACUGUUGUUUAUUGUUGAAUCUGUGUGUCAGCCAGGAGAGCGCUGUCUGGCCUUGAACAUGGGCUGGGAUGGGAAAGGGUCUGGGAGAAGAUGGGCAACAAAGAGCCAGGUGGAAUUCUCGGGUGCCAA	0.811
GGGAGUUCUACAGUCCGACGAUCGUUCUGUAAUUUAUUGAACAUUGGCCCUUGGGUAUAGCUUGACCCUUCCCAGAAUCUGUUUUGCCAUCUGCCAUUUGAGGGUGCUUGUUCUAAACAGCCUUUGAGGGUUUUGGAAUUCUCGGGUGCCAA	0.479
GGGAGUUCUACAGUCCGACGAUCCCUGGACCACAAUUUGUAAGCCAUUCUAAUACAUCCCCUUUAUAUGUAUUUUUUCAUUCUAUAAGUUCUGUUCUAGAGAAUCCCAAGUAAUACAGAUUUUCAUAUCAGAGUGGAAUUCUCGGGUGCCAA	0.372
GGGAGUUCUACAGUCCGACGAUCUUACUUCAAUGAAAGCAUGUAACAAGUUUCUCAAACCACCAACAGCCAAGUGGAUUUGGUACAGUGCGGCUGUCUAAUAAAUAAUCAAAAGCAUUUGAUAGAAAUCUGUCUGGAAUUCUCGGGUGCCAA	1.81

Study 4
Target: Hepatocyte nuclear factor 3-alpha (Foxa1, Mus musculus, UniProt P35582, residues 1-468, full length assumed)
Technique: EMSA with sequencing
Molecule type: double-stranded DNA, one strand shown
Matrix: in vitro
Tested at: 10 and 20 nM
Setting: whole designed probe, mean of two concentrations, ends assumed
Baseline: negative control set to 0
Direction: higher = stronger binding
Target sequence (chain): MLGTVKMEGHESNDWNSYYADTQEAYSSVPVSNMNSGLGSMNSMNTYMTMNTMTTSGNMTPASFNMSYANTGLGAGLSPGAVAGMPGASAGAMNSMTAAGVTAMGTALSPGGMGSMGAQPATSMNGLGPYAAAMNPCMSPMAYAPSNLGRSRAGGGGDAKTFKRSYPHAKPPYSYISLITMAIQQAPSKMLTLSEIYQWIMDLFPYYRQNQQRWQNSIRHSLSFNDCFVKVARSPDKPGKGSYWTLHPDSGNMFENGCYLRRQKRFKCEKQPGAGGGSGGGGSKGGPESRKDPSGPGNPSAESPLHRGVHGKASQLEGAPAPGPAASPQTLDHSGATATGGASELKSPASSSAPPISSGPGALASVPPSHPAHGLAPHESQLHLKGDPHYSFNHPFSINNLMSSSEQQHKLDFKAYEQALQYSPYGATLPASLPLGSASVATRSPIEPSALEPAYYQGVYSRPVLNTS
Strand	normalised bound fraction [ratio]
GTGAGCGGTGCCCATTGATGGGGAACATAGTGCAGAACCAGAAGGGTTGCCTAAAATGTACTAAAATAGAATTAATAAAATTAACATAACTCTTTAGAAATATTATACTTCAAGTCCATATTTACTTAGGGAGCATTATAAATTCCCTTATATAATTTCATCCATTGAATTACAAAAGACACGACAAAGGAGCTAATGGATATGATATTTACATTAACATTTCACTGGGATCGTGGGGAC	0.491
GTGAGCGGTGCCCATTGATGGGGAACATTTCTGGAGAGCACAGTGTGTTTTATCTTGAAAAAAACATAGTTCATTATTTTTTCAACTCCCATTCTTGGAAGCGCTGAATCCACTGCTGTTATTTACACAAGAAATGTCAACGATTGTTTCAGGCAGTTTGGTAGGCTAGACAATGCTTCACACAGGGGGAACTGTTTGCAATTTACTTAAAGGGTCTAATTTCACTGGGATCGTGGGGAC	0.45
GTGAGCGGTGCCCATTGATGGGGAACAGATTGCTTTGTGATTGTTTTGCCAGATTTTGCTTTCACCCACAAAAACACTAAGCTCTGCCAACCAGTTCGGCGTTTTTGTAAGTTAGCAAAATAAACACTAAAGTGAAAACGCGGCTTTTGGGCGGGGCTCCCACAGGCTGGCTCCTTTTAAGTGGAATGTTGCTGTGCTGCCCTCTTGTGGCCATTTGGGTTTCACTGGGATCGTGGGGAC	0.255
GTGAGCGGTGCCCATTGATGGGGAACATCTTCCCCCTCTTCCTTGCCCCACCAGCTCACCTTCCCGGGTTATTTGCAGATAGGAAAATAAATAAAGCCGGCATTCGTTAACCCTCTTCTGGCGCAAACTGCTGTTTGCTCTGGATGAATCATGGTCCTTTGGCGACGCCAGGCTCCGGGAGAGCAGCCAGCGACACCGATGAGTTGATCCGGGGTGGCCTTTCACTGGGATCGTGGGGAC	0.345
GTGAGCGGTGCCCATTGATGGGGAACCCTGAAGGCAGCTGGGGTCAGGGAACAAGGCAACTGAATATCCTCCATCAGGAAATCCTAAGAGAATAAAAAGACCAGTCTTGTAACATAAATATAAACATCTAATCAAATTAGCCAATTAGAAAAACATTTTTAAGAAAAGGCAATCTTTTACCAATTTGTCCTATGTATCTTTTGCATTTTTTCTCCCTAATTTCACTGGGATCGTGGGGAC	0.0599
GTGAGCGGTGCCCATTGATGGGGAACATCTTCCCCCTCTTCCTTGCCCCACCAGCTCACCTACGGGGGTTATTTGCACAAAGGAAAATAAATAAAGCCGGCATTCGTTAACGCAGTTCTGGCGCAAACTGCTGTTTGCTCTGGATCTAACATGGTCCTTTGGCGACGCCAGGCTCCGGGAGAGCAAAGCACCGTGTCAGGGCCATGATCCGGGCTCGCCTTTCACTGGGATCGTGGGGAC	0.387

Excerpt of the above (study 1):
Substitution	normalised enrichment score
Y3P	0.114
L7K	0.114
L7N	1.11
